Results from different studies.
Protocols differ between the studies behind these lines.
Cell line: HEK293

Structure (SMILES) = Cc1cc(O)c(=O)c(O)cc1C(=O)c1ccccc1; observed = cell growth or viability; method = MTS; CC50 = > 83 µM
Structure (SMILES) = Cc1ccc2c(c1)C1CC(C)(N2)c2c(C)nc3ccc(C)cc3c21 (centres unmarked); observed = cell growth or viability; method = MTT; CC50 = 44.2 µM
Structure (SMILES) = Cc1ccc(Cn2cc(C(=O)N/N=C/c3ccc([N+](=O)[O-])o3)c(=O)c3ccc(Oc4ccccc4)cc32)cc1; observed = cell growth or viability; method = resazurin; time = 48 h; CC50 = > 20 µM
Structure (SMILES) = O=C1C(=O)c2[nH]cc3c2C(=C1I)NCC3; observed = cell growth or viability; method = MTT; time = 72 h; CC50 = 50 µM
Structure (SMILES) = O=c1c(O)ccccc1O; observed = cell growth or viability; method = MTS; CC50 = > 100 µM
Structure (SMILES) = O=C1C(NCCc2ccc(O)c(Br)c2)=CC2=NCCc3c[nH]c1c32; observed = cell growth or viability; method = MTT; time = 72 h; CC50 = 4 µM
Structure (SMILES) = CCOC(=O)c1ccc2c(c1)C1CC(C)(N2)c2c(C)nc3ccc(C(=O)OCC)cc3c21 (centres unmarked); observed = cell growth or viability; method = MTT; CC50 = > 400 µM
Structure (SMILES) = CC[C@H]1OC(=O)[C@H](C)[C@@H](OC(=O)Cc2c(F)cccc2F)[C@H](C)[C@@H](O[C@@H]2O[C@H](C)C[C@H](N(C)C)[C@H]2O)[C@](C)(OC)C[C@@H](C)C(=O)[C@H](C)[C@@H](O)[C@]1(C)O; observed = cell growth or viability; CC50 = > 32 µg/mL
Structure (SMILES) = COC1=CC2=NCCc3c[nH]c(c32)C1=O; observed = cell growth or viability; method = MTT; time = 72 h; CC50 = 20 µM
Structure (SMILES) = CC[C@H]1OC(=O)[C@H](C)[C@@H](OC(=O)Cc2ccc(N)cc2)[C@H](C)[C@@H](O[C@@H]2O[C@H](C)C[C@H](N(C)C)[C@H]2O)[C@](C)(OC)C[C@@H](C)C(=O)[C@H](C)[C@@H](O)[C@]1(C)O; observed = cell growth or viability; CC50 = > 32 µg/mL
Structure (SMILES) = CC(C)[C@@H](C)Nc1nc(-c2cccs2)nc(Cl)c1-c1c(F)cc(F)cc1F; observed = cell growth or viability; method = resazurin; time = 48 h; CC50 = > 50 µM
Structure (SMILES) = CC[C@H]1OC(=O)[C@H](C)[C@@H](OC(=O)Cc2ccc(C(F)(F)F)cc2)[C@H](C)[C@@H](O[C@@H]2O[C@H](C)C[C@H](N(C)C)[C@H]2O)[C@](C)(OC)C[C@@H](C)C(=O)[C@H](C)[C@@H](O)[C@]1(C)O; observed = cell growth or viability; CC50 = > 32 µg/mL
Structure (SMILES) = C[N+]1=C2C=C(NCCc3c[nH]c4ccccc34)C(=O)c3[nH]cc(c32)CC1; observed = cell growth or viability; method = MTT; time = 72 h; CC50 = 0.5 µM
Structure (SMILES) = CC[C@H]1OC(=O)[C@H](C)[C@@H](OC(=O)Cc2ccccc2Cl)[C@H](C)[C@@H](O[C@@H]2O[C@H](C)C[C@H](N(C)C)[C@H]2O)[C@](C)(OC)C[C@@H](C)C(=O)[C@H](C)[C@@H](O)[C@]1(C)O; observed = cell growth or viability; CC50 = > 32 µg/mL
Structure (SMILES) = COc1ccc(CCNC2=CC3=[N+](C)CCc4c[nH]c(c43)C2=O)cc1; observed = cell growth or viability; method = MTT; time = 72 h; CC50 = 0.2 µM
Structure (SMILES) = CC[C@H]1OC(=O)[C@H](C)[C@@H](OC(=O)Cc2ccccc2[N+](=O)[O-])[C@H](C)[C@@H](O[C@@H]2O[C@H](C)C[C@H](N(C)C)[C@H]2O)[C@](C)(OC)C[C@@H](C)C(=O)[C@H](C)[C@@H](O)[C@]1(C)O; observed = cell growth or viability; CC50 = > 32 µg/mL
Structure (SMILES) = COc1cccc(-c2onc3nc(Nc4ccc(S(N)(=O)=O)cc4)sc23)c1O; CC50 = 15.3 µM

Some of these lines once more:
Structure (SMILES) = CC[C@H]1OC(=O)[C@H](C)[C@@H](OC(=O)Cc2ccc(C(F)(F)F)cc2)[C@H](C)[C@@H](O[C@@H]2O[C@H](C)C[C@H](N(C)C)[C@H]2O)[C@](C)(OC)C[C@@H](C)C(=O)[C@H](C)[C@@H](O)[C@]1(C)O; observed = cell growth or viability; CC50 = > 32 µg/mL
